{"data": "Experimental data pooled from the literature", "note": "Each line is one published result; not all experiments were run side by side. ± gives the spread as reported."}
{"Structure (SMILES)": "CCCC[C@H](NC(=O)CNC(=O)CNC(=O)CN1CCN(CC(=O)O)CCN(CC(=O)O)CCN(CC(=O)O)CC1)C(=O)N[C@H]1CC(=O)NCCCC[C@@H](C(N)=O)NC(=O)[C@H](Cc2c[nH]c3ccccc23)NC(=O)[C@H](CCCNC(=N)N)NC(=O)[C@@H](Cc2ccccc2)NC(=O)[C@H](Cc2c[nH]cn2)NC1=O [copper-64 labelled]", "system": "female C57 mouse, B16/F1 melanoma, muscle", "setting": "intravenous, 0.037 MBq, 0.5 h", "tissue uptake": "0.8 ± 0.12 %ID/g"}
{"Structure (SMILES)": "CN(C)c1ccc(-c2nc3ccc(OCCCCCN4CCN5CCN(CC4)CC(=O)[O][Al]([18F])[O]C(=O)C5)cc3s2)cc1", "system": "ICR mouse, lung", "setting": "intravenous, 30 min", "tissue uptake": "1.83 ± 0.48 %ID/g"}
{"Structure (SMILES)": "CCCC[C@@H]1NC(=O)[C@@H](NC(=O)[C@H](CCC(=O)O)NC(=O)CNC(=O)CN2CCN(CC(=O)O)CCN(CC(=O)O)CCN(CC(=O)O)CC2)CCCCNC(=O)C[C@@H](C(N)=O)NC(=O)[C@H](C(C)C)NC(=O)[C@@H]2CCCN2C(=O)[C@H](CCCNC(=N)N)NC(=O)CNC(=O)[C@H](Cc2c[nH]c3ccccc23)NC(=O)[C@H](CCCNC(=N)N)NC(=O)[C@@H](Cc2ccccc2)NC(=O)[C@H](Cc2c[nH]cn2)NC(=O)[C@H](CCC(=O)O)NC1=O [gallium-67 labelled]", "system": "C57 mice with B16/F1 melanoma, brain", "setting": "intravenous, 4 h", "tissue uptake": "0.01 %ID/g"}
{"Structure (SMILES)": "CN1C(=O)[C@@H](Cc2ccc(O)c(I)c2)NC(=O)CNC(=O)[C@H](Cc2ccc3ccccc3c2)NC(=O)[C@H](CCCNC(=N)N)NC(=O)[C@H]1CCCNC(=O)c1ccc(CNC(=O)CN2CCN(CC(=O)O)CCN(CC(=O)O)CCN(CC(=O)O)CC2)cc1 [lutetium-177 labelled]", "test": "refers to: 177Lu radioactivity", "system": "female CB-17 SCID mice, Daudi xenograft, uterus", "setting": "intravenous, 0.16 nmol per mouse, 6 h", "tissue uptake": "0.31 ± 0.05 %ID/g"}
{"Structure (SMILES)": "O=C(O)C1CN(Cc2ccc(-c3noc(-c4ccc(OCC[18F])c(C(F)(F)F)c4)n3)cc2)C1", "system": "Sprague-Dawley rat, male, normal, thymus", "setting": "iv, 30 min", "tissue uptake": "0.151 ± 0.01 %ID/g"}
{"Structure (SMILES)": "CC(C)[C@H](NC(=O)[C@@H]1CCCN1C(=O)[C@H](CCCNC(=N)N)NC(=O)[C@H](CS)NC(=O)[C@H](Cc1c[nH]c2ccccc12)NC(=O)[C@H](CCCNC(=N)N)NC(=O)[C@@H](Cc1ccccc1)NC(=O)[C@H](Cc1c[nH]cn1)NC(=O)[C@H](CCC(=O)O)NC(=O)[C@H](CS)NC(=O)[C@H](CS)NC(=O)[C@@H]1CC(=O)N[C@@H](CCCNC(=N)N)C(=O)NCC(=O)N[C@@H](CC(=O)O)C(=O)N[C@H](Cc2ccc(O)cc2)C(=O)N1)C(N)=O [technetium-99m labelled]", "system": "C57 mouse, female, B16/F1 melanoma, spleen", "setting": "intravenous, 0.037 MBq, 4 h", "tissue uptake": "0.66 ± 0.31 %ID/g"}
{"Structure (SMILES)": "CCCC[C@H](NC(=O)CNC(=O)CNC(=O)CN1CCN(CC(=O)O)CCN(CC(=O)O)CCN(CC(=O)O)CC1)C(=O)N[C@H]1CC(=O)NCCCC[C@@H](C(N)=O)NC(=O)[C@H](Cc2c[nH]c3ccccc23)NC(=O)[C@H](CCCNC(=N)N)NC(=O)[C@@H](Cc2ccccc2)NC(=O)[C@H](Cc2c[nH]cn2)NC1=O [lead-203 labelled]", "system": "C57 mouse, muscle", "setting": "intravenous, 0.056 MBq, 2 h", "tissue uptake": "0.08 ± 0.08 %ID/g"}
{"Structure (SMILES)": "OCc1cn(Cc2ccc(-c3noc(-c4ccc(OCC[18F])c(C(F)(F)F)c4)n3)cc2)nn1", "system": "female Lewis rat, fat", "setting": "intravenous, 60 min", "tissue uptake": "0.69 ± 0.07 %ID/g"}
{"Structure (SMILES)": "CCCC[C@H](NC(=O)CNC(=O)CNC(=O)CN1CCN(CC(=O)O)CCN(CC(=O)O)CC1)C(=O)N[C@H]1CC(=O)NCCCC[C@@H](C(N)=O)NC(=O)[C@H](Cc2c[nH]c3ccccc23)NC(=O)[C@H](CCCNC(=N)N)NC(=O)[C@@H](Cc2ccccc2)NC(=O)[C@H](Cc2c[nH]cn2)NC1=O [gallium-67 labelled]", "system": "female C57 mice, B16/F1 melanoma, kidneys", "setting": "intravenous, 0.037 MBq, 24 h", "tissue uptake": "2.74 ± 0.64 %ID/g"}
{"Structure (SMILES)": "CC(C)[C@H](NC(=O)[C@@H]1CCCN1C(=O)[C@H](CCCNC(=N)N)NC(=O)[C@H](CS)NC(=O)[C@H](Cc1c[nH]c2ccccc12)NC(=O)[C@H](CCCNC(=N)N)NC(=O)[C@@H](Cc1ccccc1)NC(=O)[C@H](Cc1c[nH]cn1)NC(=O)[C@H](CCC(=O)O)NC(=O)[C@H](CS)NC(=O)[C@H](CS)NC(=O)CNC(=O)[C@@H]1CC(=O)N[C@@H](CCCNC(=N)N)C(=O)NCC(=O)N[C@@H](CC(=O)O)C(=O)N[C@H](Cc2ccc(O)cc2)C(=O)N1)C(N)=O [technetium-99m labelled]", "system": "C57 mouse, female, B16/F1 melanoma, lung", "setting": "intravenous, 0.037 MBq, 4 h", "tissue uptake": "1.13 ± 0.44 %ID/g"}
{"Structure (SMILES)": "O=C([O-])CN1CCN(CC(=O)[O-])CCN(CC(=O)NCCc2ccc3c(c2)C2C=CCC2C(c2cc4c(cc2Br)OCO4)N3)CCN(CC(=O)[O-])CC1.[111In+3] (centres unmarked)", "system": "mouse, Hec50 endometrial tumour, adrenals", "setting": "4 h post injection", "tissue uptake": "0.57 ± 0.08 %ID/g"}
{"note": "Excerpt of the above:"}
{"Structure (SMILES)": "O=C(O)C1CN(Cc2ccc(-c3noc(-c4ccc(OCC[18F])c(C(F)(F)F)c4)n3)cc2)C1", "system": "Sprague-Dawley rat, male, normal, thymus", "setting": "iv, 30 min", "tissue uptake": "0.151 ± 0.01 %ID/g"}
{"Structure (SMILES)": "CC(C)[C@H](NC(=O)[C@@H]1CCCN1C(=O)[C@H](CCCNC(=N)N)NC(=O)[C@H](CS)NC(=O)[C@H](Cc1c[nH]c2ccccc12)NC(=O)[C@H](CCCNC(=N)N)NC(=O)[C@@H](Cc1ccccc1)NC(=O)[C@H](Cc1c[nH]cn1)NC(=O)[C@H](CCC(=O)O)NC(=O)[C@H](CS)NC(=O)[C@H](CS)NC(=O)[C@@H]1CC(=O)N[C@@H](CCCNC(=N)N)C(=O)NCC(=O)N[C@@H](CC(=O)O)C(=O)N[C@H](Cc2ccc(O)cc2)C(=O)N1)C(N)=O [technetium-99m labelled]", "system": "C57 mouse, female, B16/F1 melanoma, spleen", "setting": "intravenous, 0.037 MBq, 4 h", "tissue uptake": "0.66 ± 0.31 %ID/g"}
